{"data": "Assay results of several laboratories", "cell line": "SK-MEL-28", "note": "Protocols differ between the studies behind these lines. Several values in a cell are separate wells, animals, samples, runs or records. pEC50: −log10 of the molar value."}
{"Compound": "Cc1n[nH]c2nc(-c3ccc(Cl)cc3)c3c(NC(=O)c4ccccc4)nnc-3n12", "assay": "SRB", "setting": "10 µM, NCI60 single-dose screen", "scale": "relative to: untreated", "endpoint": "cell growth", "result": "111%"}
{"Compound": "CCCCN1CCN(c2ccc3[nH]c(-c4ccc5[nH]c(-c6ccc(C(F)(F)F)cc6)nc5c4)nc3c2)CC1", "assay": "SRB", "setting": "10 µM, 48 h", "endpoint": "growth percent", "result": "-88.3%"}
{"Compound": "[Cl-].[Cl-].[Ru+2].c1cnc2c(c1)ccc1cccnc12.c1cnc2c(c1)ccc1cccnc12.c1csc(-c2ccc(-c3ccc(-c4ccc(-c5nc6c7cccnc7c7ncccc7c6[nH]5)s4)s3)s2)c1", "setting": "normoxia, with: visible light 100 J/cm2", "endpoint": "pEC50", "result": 9.13}
{"Compound": "CCn1cc(-c2cc(Cn3ccnc3)cc3c2CCN([C@H](c2cc(OC)ccn2)C2CC2)C3=O)c(C(F)(F)F)n1", "assay": "cell growth, inhibitor", "setting": "120 h", "endpoint": "pEC50", "result": 5.52}
{"Compound": "CCCN1CCN(c2ccc3[nH]c(-c4ccc5[nH]c(-c6cc(OC)c(OC)c(OC)c6)nc5c4)nc3c2)CC1", "assay": "SRB", "setting": "10 µM, 48 h", "endpoint": "growth percent", "result": "57.9%"}
{"Compound": "[Cl-].[Cl-].[Ru+2].c1cnc2c(c1)ccc1cccnc12.c1cnc2c(c1)ccc1cccnc12.c1csc(-c2ccc(-c3ccc(-c4nc5c6cccnc6c6ncccc6c5[nH]4)s3)s2)c1", "assay": "resazurin viability", "setting": "dark, hypoxia 1% O2", "endpoint": "pEC50", "result": "> 4.00"}
{"Compound": "CCCCN1CCN(c2ccc3nc(-c4ccc5nc(-c6cc(OC)ccc6OC)[nH]c5c4)[nH]c3c2)CC1", "assay": "SRB", "setting": "10 µM, 48 h", "endpoint": "growth percent", "result": "104%"}
{"Compound": "C#C[C@@]1(O)[C@@H](CO)O[C@@H](n2cc(Br)c3c(N)ncnc32)[C@@H]1O", "assay": "SRB", "setting": "NCI-60 screen", "endpoint": "TGI", "result": "48.1 µM and 30.2 µM"}
{"Compound": "O=C1NC(c2ccccc2)(c2ccccc2)C(=O)N1Cc1cn(-c2cc3ccccc3oc2=O)nn1", "assay": "NCI60 single-dose screen", "setting": "10 µM", "endpoint": "growth percentage", "result": "111%"}
{"Compound": "Cc1cc(=O)[nH]n1-c1nc(-c2ccc(Cl)cc2)c2c(NC(=O)c3ccccc3)nnc-2[nH]1", "assay": "SRB", "setting": "10 µM, NCI60 single-dose screen", "scale": "relative to: untreated", "endpoint": "cell growth", "result": "92.6%"}
{"Compound": "Cn1cncc1C1=CN(c2ncnc3[nH]cnc23)CCS1", "setting": "melanoma cell line", "endpoint": "TGI", "result": "100 µM"}
{"Compound": "Cc1cc(=O)[nH]c(=O)n1Cc1cn(-c2cc3ccccc3oc2=O)nn1", "assay": "NCI60 single-dose screen", "setting": "10 µM", "endpoint": "growth percentage", "result": "110%"}
{"Compound": "O=C(Nc1nnc2n3c(Cc4ccccc4)n[nH]c3nc(-c3ccc(Cl)cc3)c1-2)c1ccccc1", "assay": "SRB", "setting": "10 µM, NCI60 single-dose screen", "scale": "relative to: untreated", "endpoint": "cell growth", "result": "111%"}
{"note": "Some of these lines once more:"}
{"Compound": "O=C(Nc1nnc2n3c(Cc4ccccc4)n[nH]c3nc(-c3ccc(Cl)cc3)c1-2)c1ccccc1", "assay": "SRB", "setting": "10 µM, NCI60 single-dose screen", "scale": "relative to: untreated", "endpoint": "cell growth", "result": "111%"}
{"Compound": "Cc1cc(=O)[nH]c(=O)n1Cc1cn(-c2cc3ccccc3oc2=O)nn1", "assay": "NCI60 single-dose screen", "setting": "10 µM", "endpoint": "growth percentage", "result": "110%"}
